Assay results pooled from the literature.
Compare with care: the assays were run in different laboratories. ± marks the error that the study gave.
TRPV1: Transient receptor potential cation channel subfamily V member 1 (TRPV1, Homo sapiens, UniProt Q8NER1)
UniProt Q8NER1, sequence (whole entry, looked up): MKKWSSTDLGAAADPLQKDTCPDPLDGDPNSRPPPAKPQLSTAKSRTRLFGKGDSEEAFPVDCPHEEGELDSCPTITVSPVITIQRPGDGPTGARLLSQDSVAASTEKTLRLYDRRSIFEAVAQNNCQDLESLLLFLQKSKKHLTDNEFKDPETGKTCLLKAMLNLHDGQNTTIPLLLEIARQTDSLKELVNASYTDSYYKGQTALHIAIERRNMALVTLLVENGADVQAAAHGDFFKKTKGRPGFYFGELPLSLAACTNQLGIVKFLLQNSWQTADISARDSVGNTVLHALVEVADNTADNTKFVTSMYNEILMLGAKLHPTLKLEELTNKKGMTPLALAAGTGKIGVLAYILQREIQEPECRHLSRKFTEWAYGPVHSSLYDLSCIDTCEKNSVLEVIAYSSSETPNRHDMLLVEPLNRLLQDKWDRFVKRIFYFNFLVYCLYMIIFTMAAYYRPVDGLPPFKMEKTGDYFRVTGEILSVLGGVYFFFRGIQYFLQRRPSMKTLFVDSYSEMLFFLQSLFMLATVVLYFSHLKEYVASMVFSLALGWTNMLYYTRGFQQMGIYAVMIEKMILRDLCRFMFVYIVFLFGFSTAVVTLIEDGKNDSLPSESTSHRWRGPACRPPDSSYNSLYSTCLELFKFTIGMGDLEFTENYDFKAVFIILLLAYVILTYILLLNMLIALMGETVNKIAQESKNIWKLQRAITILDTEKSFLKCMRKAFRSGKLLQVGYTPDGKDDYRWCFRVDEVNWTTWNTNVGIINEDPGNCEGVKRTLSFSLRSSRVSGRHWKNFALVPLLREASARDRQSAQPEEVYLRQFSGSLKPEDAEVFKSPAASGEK
UniProt P02751, sequence (whole entry, looked up): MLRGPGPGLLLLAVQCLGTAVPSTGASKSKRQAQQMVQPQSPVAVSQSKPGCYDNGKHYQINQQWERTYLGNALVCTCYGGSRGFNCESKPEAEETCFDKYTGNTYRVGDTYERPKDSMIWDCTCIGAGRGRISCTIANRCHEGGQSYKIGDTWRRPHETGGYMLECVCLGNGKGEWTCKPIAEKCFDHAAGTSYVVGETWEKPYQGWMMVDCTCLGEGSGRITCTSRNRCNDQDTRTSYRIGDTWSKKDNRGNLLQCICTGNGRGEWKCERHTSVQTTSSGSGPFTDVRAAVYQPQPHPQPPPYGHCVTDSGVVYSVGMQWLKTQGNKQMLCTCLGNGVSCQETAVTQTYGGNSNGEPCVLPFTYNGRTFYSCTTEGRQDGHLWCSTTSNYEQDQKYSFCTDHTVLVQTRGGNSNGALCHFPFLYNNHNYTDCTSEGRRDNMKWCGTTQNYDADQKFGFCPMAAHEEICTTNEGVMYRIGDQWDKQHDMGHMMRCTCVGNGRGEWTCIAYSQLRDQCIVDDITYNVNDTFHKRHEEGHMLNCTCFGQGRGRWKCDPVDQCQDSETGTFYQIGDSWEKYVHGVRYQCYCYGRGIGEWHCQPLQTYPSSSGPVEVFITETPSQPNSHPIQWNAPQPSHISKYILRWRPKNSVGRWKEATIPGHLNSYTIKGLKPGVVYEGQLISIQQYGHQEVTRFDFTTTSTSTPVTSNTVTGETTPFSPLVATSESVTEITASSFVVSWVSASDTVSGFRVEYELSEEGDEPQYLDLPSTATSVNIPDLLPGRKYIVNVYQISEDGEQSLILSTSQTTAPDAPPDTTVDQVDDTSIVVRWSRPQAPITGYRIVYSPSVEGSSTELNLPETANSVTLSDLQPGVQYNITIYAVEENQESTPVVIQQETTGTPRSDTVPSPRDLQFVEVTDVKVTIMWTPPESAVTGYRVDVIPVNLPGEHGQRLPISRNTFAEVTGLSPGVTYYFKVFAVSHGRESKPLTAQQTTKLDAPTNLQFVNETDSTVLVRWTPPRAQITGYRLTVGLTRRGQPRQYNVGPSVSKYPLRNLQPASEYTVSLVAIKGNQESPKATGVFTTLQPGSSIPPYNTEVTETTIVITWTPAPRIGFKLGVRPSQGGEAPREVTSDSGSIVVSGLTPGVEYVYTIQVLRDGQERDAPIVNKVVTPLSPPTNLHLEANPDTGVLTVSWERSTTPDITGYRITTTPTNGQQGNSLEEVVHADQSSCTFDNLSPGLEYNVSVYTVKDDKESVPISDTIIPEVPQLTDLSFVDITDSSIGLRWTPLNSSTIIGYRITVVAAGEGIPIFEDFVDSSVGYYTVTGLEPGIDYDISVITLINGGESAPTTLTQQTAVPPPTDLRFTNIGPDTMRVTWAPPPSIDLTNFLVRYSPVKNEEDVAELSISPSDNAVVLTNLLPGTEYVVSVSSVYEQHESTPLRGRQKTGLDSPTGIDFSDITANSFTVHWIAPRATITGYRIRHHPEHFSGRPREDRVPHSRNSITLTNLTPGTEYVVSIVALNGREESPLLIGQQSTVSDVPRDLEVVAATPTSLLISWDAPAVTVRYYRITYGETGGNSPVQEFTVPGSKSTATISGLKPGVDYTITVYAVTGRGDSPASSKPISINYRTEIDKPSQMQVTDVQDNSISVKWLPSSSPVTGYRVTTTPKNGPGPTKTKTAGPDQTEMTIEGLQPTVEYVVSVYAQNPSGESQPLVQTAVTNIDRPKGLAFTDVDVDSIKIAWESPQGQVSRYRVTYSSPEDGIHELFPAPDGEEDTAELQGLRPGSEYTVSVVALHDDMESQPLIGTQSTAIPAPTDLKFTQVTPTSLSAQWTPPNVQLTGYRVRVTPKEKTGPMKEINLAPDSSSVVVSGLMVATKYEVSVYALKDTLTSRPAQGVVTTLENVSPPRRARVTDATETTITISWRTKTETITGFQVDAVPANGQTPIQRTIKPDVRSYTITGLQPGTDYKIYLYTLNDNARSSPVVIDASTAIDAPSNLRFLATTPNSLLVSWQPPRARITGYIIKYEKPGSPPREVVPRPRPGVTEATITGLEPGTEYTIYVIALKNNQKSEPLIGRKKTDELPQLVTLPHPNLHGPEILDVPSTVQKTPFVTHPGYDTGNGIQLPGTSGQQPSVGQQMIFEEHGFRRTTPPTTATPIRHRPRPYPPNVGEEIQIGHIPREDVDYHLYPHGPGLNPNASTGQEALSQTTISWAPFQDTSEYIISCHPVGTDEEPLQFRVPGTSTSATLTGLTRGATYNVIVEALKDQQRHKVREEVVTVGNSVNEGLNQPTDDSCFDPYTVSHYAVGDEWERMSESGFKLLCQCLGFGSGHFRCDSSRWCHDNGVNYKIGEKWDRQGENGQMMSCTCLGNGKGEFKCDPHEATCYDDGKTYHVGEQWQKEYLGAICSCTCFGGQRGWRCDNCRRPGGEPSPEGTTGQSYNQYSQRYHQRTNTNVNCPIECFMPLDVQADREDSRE
UniProt P07363, sequence (whole entry, looked up): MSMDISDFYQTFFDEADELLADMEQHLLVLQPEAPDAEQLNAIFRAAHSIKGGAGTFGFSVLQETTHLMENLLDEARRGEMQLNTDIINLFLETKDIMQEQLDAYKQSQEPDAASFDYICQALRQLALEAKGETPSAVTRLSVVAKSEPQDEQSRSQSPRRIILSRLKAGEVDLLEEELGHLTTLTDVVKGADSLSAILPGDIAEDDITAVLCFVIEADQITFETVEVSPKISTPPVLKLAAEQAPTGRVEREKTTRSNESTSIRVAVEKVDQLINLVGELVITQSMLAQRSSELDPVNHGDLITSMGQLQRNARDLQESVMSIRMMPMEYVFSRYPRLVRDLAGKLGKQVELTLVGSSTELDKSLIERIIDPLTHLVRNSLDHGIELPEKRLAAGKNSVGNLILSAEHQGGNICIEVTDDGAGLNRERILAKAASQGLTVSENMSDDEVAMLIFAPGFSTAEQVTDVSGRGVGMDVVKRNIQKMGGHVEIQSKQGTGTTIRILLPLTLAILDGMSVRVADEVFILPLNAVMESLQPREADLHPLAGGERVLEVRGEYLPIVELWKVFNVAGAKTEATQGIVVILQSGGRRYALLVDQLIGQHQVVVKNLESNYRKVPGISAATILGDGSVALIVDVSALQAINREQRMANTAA
UniProt P00383, sequence (whole entry, looked up): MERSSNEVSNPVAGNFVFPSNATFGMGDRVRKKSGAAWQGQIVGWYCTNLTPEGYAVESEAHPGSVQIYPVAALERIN
UniProt P30550, sequence (whole entry, looked up): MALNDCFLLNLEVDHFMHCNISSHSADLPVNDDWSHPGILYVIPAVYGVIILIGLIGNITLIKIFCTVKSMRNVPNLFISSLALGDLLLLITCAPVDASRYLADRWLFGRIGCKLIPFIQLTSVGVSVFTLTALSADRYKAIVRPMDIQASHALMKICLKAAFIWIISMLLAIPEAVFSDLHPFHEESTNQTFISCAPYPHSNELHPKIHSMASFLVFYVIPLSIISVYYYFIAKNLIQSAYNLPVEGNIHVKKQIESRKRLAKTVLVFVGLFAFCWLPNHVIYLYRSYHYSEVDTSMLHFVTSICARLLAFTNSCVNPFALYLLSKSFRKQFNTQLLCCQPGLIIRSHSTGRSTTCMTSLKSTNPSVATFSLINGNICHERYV
UniProt P16389, sequence (whole entry, looked up): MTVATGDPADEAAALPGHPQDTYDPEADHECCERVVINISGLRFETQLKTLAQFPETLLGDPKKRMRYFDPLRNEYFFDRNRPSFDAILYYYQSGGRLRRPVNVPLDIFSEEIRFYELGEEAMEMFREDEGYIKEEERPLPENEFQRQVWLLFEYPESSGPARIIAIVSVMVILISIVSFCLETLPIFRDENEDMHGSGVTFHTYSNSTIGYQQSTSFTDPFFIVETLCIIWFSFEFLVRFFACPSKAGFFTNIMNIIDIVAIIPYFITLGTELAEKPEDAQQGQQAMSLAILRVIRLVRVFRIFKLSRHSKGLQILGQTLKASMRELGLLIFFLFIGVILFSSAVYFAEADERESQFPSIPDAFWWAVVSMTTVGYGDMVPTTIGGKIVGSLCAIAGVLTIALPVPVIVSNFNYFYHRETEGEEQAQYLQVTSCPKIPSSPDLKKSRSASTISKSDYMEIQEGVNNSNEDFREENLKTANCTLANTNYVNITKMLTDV

`Cc1cc2c(NC(=O)N[C@@H]3CC(C)(C)Oc4cc(C(F)(F)F)ccc43)cccc2cn1` has an IC50 of 0.0201 ± 0.0073 µM (TRPV1; acid-evoked calcium influx, antagonist; HEK293, human; pH 5).
`O=C(Nc1ccc(C(=O)Nc2ccc(C(=O)Nc3ccc(S(=O)(=O)O)c4cc(S(=O)(=O)O)cc(S(=O)(=O)O)c34)cc2)cc1)Nc1ccc(C(=O)Nc2ccc(C(=O)Nc3ccc(S(=O)(=O)O)c4cc(S(=O)(=O)O)cc(S(=O)(=O)O)c34)cc2)cc1` gave an IC50 of > 180 µM (Chymotrypsinogen A (Bos taurus, UniProt P00766); enzyme activity, inhibitor, absorbance; pH 7.4).
The IC50 of `CC(C)=CCN=C(N)NCCC[C@@H](NC(=O)CCCc1ccc(O)cc1)C(=O)N[C@@H](Cc1ccccc1)C(O)CC(=O)N[C@@H](Cc1ccc(O)cc1)C(=O)O` (stereo in doubt) is reported as > 100 µM (Disintegrin and metalloproteinase domain-containing protein 9 (Homo sapiens, UniProt Q13443); enzyme activity, inhibitor).
With `NC(=O)Nc1nc2cc(Br)ccc2[nH]c1=O` the IC50 was > 100 µM (Chemotaxis protein CheA (Escherichia coli, UniProt P07363); kinase activity, ATP-competitive; added: CheW).
With `C[C@H](NC(=O)[C@@H](N)CCCNC(=N)N)C(=O)N[C@@H](Cc1c[nH]c2ccccc12)C(N)=O` the IC50 was > 100 µM (Ephrin type-B receptor 4 (Mus musculus, UniProt P54761); ephrin-B2 binding, inhibitor; 1 h, added: ephrin-B2 AP 0.02 nM).
`NC(=O)N/N=C/c1ccccn1` has an IC50 of 2.92 µM (SOD1 (Homo sapiens, UniProt P00441); enzyme activity, inhibitor; HeLa; 24 h).
With `CCCCCCCCCCCCCC(=S)NCCCC[C@H](NS(C)(=O)=O)C(=O)N[C@H](C)C(=O)N[C@@H](CCCNC(=N)N)C(N)=O` the IC50 was 3.7 µM (SIRT1 (Homo sapiens, UniProt Q96EB6); enzyme activity, inhibitor).
`O=C(O)c1ccc2nc(-c3ccc(OCCCCCCOc4ccc(-c5nc6ccc(C(=O)O)cc6[nH]5)cc4)cc3)[nH]c2c1` gave an IC50 of 180 ± 95 µM (Dihydrofolate reductase type 2 (Escherichia coli, UniProt P00383); enzyme activity, inhibitor; pH 7).
With `CCC1(CC)C[C@@H](NC(=O)Nc2cccc3c(C)nccc23)c2cc(F)ccc2O1` the IC50 was 0.019 µM (TRPV1; calcium signal, antagonist, fluorescence).
`CN(C)c1ccc2c(c1)C(=O)N([C@H](CS)C(=O)O)C2=O` gave an IC50 of 1.26 µM (VIM-2 (Escherichia coli, UniProt Q5U7L7); enzyme activity, inhibitor; pH 7).
With `NCC(=O)NCC(=O)N[C@@H](Cc1c[nH]c2ccccc12)C(=O)N[C@@H](CO)C(=O)N[C@@H](Cc1c[nH]cn1)C(=O)N[C@@H](Cc1c[nH]c2ccccc12)C(=O)O` the IC50 was 1 µM (Fibronectin (FN1, Homo sapiens, UniProt P02751); binding, inhibitor; pH 4.5).
With `CCOc1ccc(NS(=O)(=O)c2ccc(C)c(C(=O)N3CCOC(c4ccccc4)C3)c2)cc1` (centres unmarked) the IC50 was 3.77 µM (KCNA2/KCNA1 (Homo sapiens, UniProt P16389+Q09470); potassium current, inhibitor, automated patch clamp; CHO-K1, concatemer expressing).
With `CC(C)[C@H](NC(=O)[C@H](C)NC(=O)[C@H](Cc1c[nH]c2ccccc12)NC(=O)[C@H](Cc1c[nH]cn1)NC(=O)[C@H](N)Cc1ccc(O)cc1)C(=O)N[C@H](C)C(=O)N[C@@H](Cc1c[nH]cn1)C(=O)N1CCC[C@@H]1CN[C@@H](Cc1ccccc1)C(N)=O` the IC50 was 0.168 ± 0.02 µM (GRPR (Homo sapiens, UniProt P30550); inositol phosphate generation, antagonist; Balb 3T3 expressing GRPR; added: GRP 1 nM).
`COCC12C(=O)NC3C4(C(OC)CC1O)C1CC5(O)C(OC)C(O)C(OC(C)=O)(C1C5OC(=O)c1ccccc1)C3(O)C(OC)C24` (centres unmarked) has an IC50 of 37.5 µM (MAPKAPK5 (Homo sapiens, UniProt Q8IW41); enzyme activity, inhibitor, radiometric).

A few entries again:
With `CCOc1ccc(NS(=O)(=O)c2ccc(C)c(C(=O)N3CCOC(c4ccccc4)C3)c2)cc1` (centres unmarked) the IC50 was 3.77 µM (KCNA2/KCNA1 (Homo sapiens, UniProt P16389+Q09470); potassium current, inhibitor, automated patch clamp; CHO-K1, concatemer expressing).
With `NC(=O)Nc1nc2cc(Br)ccc2[nH]c1=O` the IC50 was > 100 µM (Chemotaxis protein CheA (Escherichia coli, UniProt P07363); kinase activity, ATP-competitive; added: CheW).
